Published values pooled from the literature.
Each line is one published result; not all experiments were run side by side. ± marks the error that the study gave.

| SMILES | host | sample | route | dose | time | notes | AUC(0-t) |
| --- | --- | --- | --- | --- | --- | --- | --- |
| CCCC[C@H](OC(C)=O)c1ccccc1C(=O)O | Sprague-Dawley rats, both sexes | whole blood | intravenous | 5 mg/kg single dose |  |  | 3980 ± 960 ng·h/mL |
| COc1ccc([C@@H]2CC(=O)c3c(O)cc(O[C@@H]4O[C@H](CO)[C@@H](O)[C@H](O)[C@H]4O[C@@H]4O[C@@H](C)[C@H](O)[C@@H](O)[C@H]4O)cc3O2)cc1O | Sprague-Dawley rat, male, lean | plasma | intravenous | 4 mg/kg |  |  | 32.6 ± 8.98 ng·h/mL |
| Cc1cccc(C)c1CNc1cc(C(=O)N2CCC2)cn2c(C)c(C)nc12 | rat Sprague-Dawley male | plasma | oral | 10 mg/kg |  |  | 608 ng·h/mL |
| C=C(NC(=O)c1csc(-c2nc3c(cc2O)-c2nc(cs2)C(=O)NC(C(C)O)C(=O)NC(=C(C)OC)c2nc(cs2)C(=O)NC2c4nc(cs4)C(=O)NC(COC(=O)c4c5c6c(cccc6n4O)COC(=O)C(OC4CC(C)(O)C(N(C)C)C(C)O4)C2OC5)c2nc-3cs2)n1)C(N)=O (centres unmarked) | Sprague-Dawley rats, male | plasma | intravenous infusion | 6 mg/kg | day 1 | multiple dosing | 1490 ng·h/mL |
| CNC(=O)C1CCCN(C(=O)C2CC3CCC2N3C(=O)[C@@H]2C[C@@H](O)CN2C(=O)NCc2cccc(Cl)c2F)C1 (mixture of isomers) | rat, Sprague-Dawley |  | oral | 8 mg/kg |  |  | 6.44 ng·h/mL |
| COCCN(C)CC(=O)NC(Cc1ccc(-c2ccccc2)cc1)B(O)O (centres unmarked) | male Sprague-Dawley rats | plasma | oral | 1 mg/kg | 24 h | citrate ester | 2660 nM·h |
| OC1(C(F)(F)F)CCN(c2nc(Nc3ccnc(C(F)(F)F)c3)nc(-c3cccc(C(F)(F)F)n3)n2)C1 (centres unmarked) | Sprague-Dawley rat, both sexes | plasma | oral gavage | 5 mg/kg |  |  | 6640 ± 950 ng·h/mL |
| O=C(O)c1c(O)cc(O[C@@H]2O[C@H](CO)[C@@H](O)[C@H](O)[C@H]2O)cc1/C=C/c1ccccc1 | Sprague-Dawley rat | plasma | oral | 5.0 mg/kg |  |  | 80.3 ± 17.9 ng·h/mL |

Some of these lines once more:
| SMILES | host | sample | route | dose | time | notes | AUC(0-t) |
| --- | --- | --- | --- | --- | --- | --- | --- |
| O=C(O)c1c(O)cc(O[C@@H]2O[C@H](CO)[C@@H](O)[C@H](O)[C@H]2O)cc1/C=C/c1ccccc1 | Sprague-Dawley rat | plasma | oral | 5.0 mg/kg |  |  | 80.3 ± 17.9 ng·h/mL |
